Assay results from different studies.
Protocols differ between the studies behind these lines. Values joined by “and” are separate records of one study, mostly repeats; a detail may differ. ± marks the error that the study gave. ≈ marks a conversion by molar mass, not a printed value.
USP13 ZnF-UBD domain: Ubiquitin carboxyl-terminal hydrolase 13, ZnF-UBD domain (USP13, Homo sapiens, UniProt Q92995)
Sequence of UniProt Q92995 (whole entry, looked up): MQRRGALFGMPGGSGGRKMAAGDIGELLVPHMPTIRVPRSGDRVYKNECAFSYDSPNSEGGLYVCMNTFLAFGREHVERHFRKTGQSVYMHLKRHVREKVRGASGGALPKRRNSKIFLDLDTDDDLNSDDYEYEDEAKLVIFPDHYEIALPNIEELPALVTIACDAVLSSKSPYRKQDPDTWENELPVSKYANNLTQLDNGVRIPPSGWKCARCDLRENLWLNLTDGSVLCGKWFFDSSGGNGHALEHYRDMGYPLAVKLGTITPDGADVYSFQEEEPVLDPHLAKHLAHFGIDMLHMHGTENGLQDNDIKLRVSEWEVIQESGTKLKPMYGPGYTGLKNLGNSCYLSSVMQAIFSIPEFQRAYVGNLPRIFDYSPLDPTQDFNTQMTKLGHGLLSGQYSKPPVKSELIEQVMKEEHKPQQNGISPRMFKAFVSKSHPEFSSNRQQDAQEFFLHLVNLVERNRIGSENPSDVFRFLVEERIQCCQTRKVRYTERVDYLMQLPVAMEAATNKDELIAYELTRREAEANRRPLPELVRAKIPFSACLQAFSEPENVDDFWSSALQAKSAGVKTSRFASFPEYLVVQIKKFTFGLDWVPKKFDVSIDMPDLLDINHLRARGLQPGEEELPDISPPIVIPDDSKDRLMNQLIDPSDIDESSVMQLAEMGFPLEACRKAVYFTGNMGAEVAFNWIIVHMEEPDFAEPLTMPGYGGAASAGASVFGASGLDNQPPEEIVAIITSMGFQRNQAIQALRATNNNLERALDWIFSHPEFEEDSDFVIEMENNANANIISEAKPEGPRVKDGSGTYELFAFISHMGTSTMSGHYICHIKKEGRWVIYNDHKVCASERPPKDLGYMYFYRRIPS

Oc1ccccc1-c1n[nH]cc1-c1ccnc2ccccc12 — log2 fold change (RTK1 (Candida albicans); kinase binding, MIB/MS competition; Candida albicans lysate; 1 µM; baseline: DMSO): 0.02
Cn1cc(-c2ccc(-c3cncc(Cl)c3N3CCC4(CCNC4=O)CC3)cc2)cn1 — log2 fold change (COLO 205; gene expression, microarray, measured: HSPA1B (HSPA1A) mRNA; concentration not given, 2 h; baseline: untreated cells): 2.07
O=C1c2cccc3c2[C@H](CCC3)CN1[C@@H]1CN2CCC1CC2 — Vmax (H+/organic cation antiporter; cell uptake; hCMEC/D3): 1910 pmol/min/mg protein
CC[S+]([O-])c1nc(-c2ccccc2)cc(C(F)(F)F)n1 (stereo not shown) — cells with nuclear reporter (importin alpha/beta-1; cMyc nuclear import, high content imaging; HeLa Kyoto reporter; 0.158 µM, 2 h): 90% and 81.3% and 78.1% and 78.8%
CC(C)NCC(O)COc1ccc(COCCOC(C)C)cc1 (stereo not shown) — Km (H+/organic cation antiporter; cell uptake; hCMEC/D3): 93.9 µM
CC(=O)NC[C@H]1CN(c2ccc(N3CCOCC3)c(F)c2)C(=O)O1 — MIC50 (Streptococcus viridans; 10 clinical isolates): 0.5 µg/mL (≈ 1.48 µM)
O=C(O[C@H]1CN2CCC1CC2)N1CCc2ccccc2[C@@H]1c1ccccc1 — Vmax (H+/organic cation antiporter; cell uptake; hCMEC/D3): 1810 pmol/min/mg protein
CC1=NN(c2ccccn2)C(=O)C1=NNc1ccc(S(N)(=O)=O)cc1 — glucose uptake (Saccharomyces cerevisiae; 500 µg/mL): 25.2%
CCN(CC)CC(=O)Nc1c(C)cccc1C — Vmax (H+/organic cation antiporter; cell uptake; hCMEC/D3): 3680 pmol/min/mg protein
COc1cnc2cccc(N3CCc4c(cc(Cn5ccnc5C)cc4-c4cn(C)nc4C(F)(F)F)C3=O)c2c1 — EC50 (C3A; cell growth, inhibitor; 120 h): 18.8 µM
O=C(O)CCC(=O)Nc1cccc2ccccc12 — Kd (USP13 ZnF-UBD domain): > 1000 µM
CCCN1CCCC[C@H]1C(=O)Nc1c(C)cccc1C — Km (H+/organic cation antiporter; cell uptake; hCMEC/D3): 50.6 µM
CCn1cc(-c2cc(Cn3ccnc3)cc3c2CCN([C@H](c2cc(OC)ccn2)C2CC2)C3=O)c(C(F)(F)F)n1 — EC50 (JHOM1; cell growth; 120 h): 0.0238 µM
CC1=NN(c2cccc([N+](=O)[O-])c2)C(=O)C1=NNc1ccc(S(N)(=O)=O)cc1 — glucose uptake (Saccharomyces cerevisiae; 10 µg/mL): 26.277 ± 0.000606%
O=C(O)CNC(=O)Cc1ccccc1 — sarcomere length (ventricular cardiomyocytes, C57BL/6 mouse; dose not given, 0.8 s): 1.69 µm
CC1=NN(c2ccc(Cl)cc2)C(=O)C1=NNc1ccc(S(N)(=O)=O)cc1 — glucose uptake (Saccharomyces cerevisiae; 10 µg/mL): 27.372 ± 0.000913%
CCOc1ccccc1OCCN[C@H](C)Cc1ccc(OC)c(S(N)(=O)=O)c1 — Vmax (H+/organic cation antiporter; cell uptake; hCMEC/D3): 795 pmol/min/mg protein
O=C(O)CCn1sc2ccccc2c1=O — Kd (USP13 ZnF-UBD domain): > 1000 µM
CC(C)NCC(O)c1ccc(O)c(O)c1 (stereo not shown) — sarcomere length (ventricular cardiomyocytes, C57BL/6 mouse; dose not given, 0.424 s): 1.72 µm
CN[C@H](CC(C)C)C(=O)N[C@H]1C(=O)N[C@@H](CC(N)=O)C(=O)N[C@H]2C(=O)N[C@H]3C(=O)N[C@H](C(=O)N[C@H](C(=O)O)c4cc(O)cc(O)c4-c4cc3ccc4O)[C@H](O)c3ccc(c(Cl)c3)Oc3cc2cc(c3O[C@@H]2O[C@H](CO)[C@@H](O)[C@H](O)[C@H]2O[C@H]2C[C@](C)(N)[C@H](O)[C@H](C)O2)Oc2ccc(cc2Cl)[C@H]1O — MIC50 (Streptococcus pyogenes; 10 isolates; serum 75%): 1 µg/mL (≈ 0.69 µM)
OC(CCN1CCCCC1)(c1ccccc1)C1CC2C=CC1C2 (stereo not shown) — change, Gamma power, EEG Pz-O1 (resting-state EEG; healthy elderly humans; oral, 2 mg, eyes closed, LS mean; baseline: baseline): 10%
CCS(=O)(=O)c1nc(C2CC2)cc(C(F)(F)F)n1 — cells with nuclear reporter (importin alpha/beta-1; cMyc nuclear import, high content imaging; HeLa Kyoto reporter; 0.0158 µM, 2 h): 66.5% and 90.2% and 94% and 95.4%
CC1=NNC(=O)C1=NNc1ccc(S(N)(=O)=O)cc1 — glucose uptake (Saccharomyces cerevisiae; 200 µg/mL): 46.7%
Cc1cc(OC(C)C)ccc1C(=O)C(C)(C)NC(=O)c1sccc1C — EC50 (Helicobasidium mompa; mycelial growth; PSA medium; 20 °C): > 50 µg/mL
CC1=NN(c2ccc(C)cc2)C(=O)C1=NNc1ccc(S(N)(=O)=O)cc1 — glucose uptake (Saccharomyces cerevisiae; 500 µg/mL): 67.3%
CCn1cc(-c2cc(Cn3ccoc3=N)cc3c2CCN([C@@H](C)c2cc(OC)ccn2)C3=O)c(C(F)(F)F)n1 — EC50 (LS-513; cell growth, inhibitor; 120 h): 0.955 µM
NC(=O)c1cnc2[nH]ccc2c1N[C@@H]1[C@@H]2CC3C[C@H]1C[C@@](O)(C3)C2 — total memory T-cell change (flow cytometry; Japanese healthy men, blood; oral, 10 mg twice daily, 72 h after day 7 dose; baseline: baseline): 1.7%
COc1ccc2c(c1)N(C[C@H](C)CN(C)C)c1ccccc1S2 — Vmax (H+/organic cation antiporter; cell uptake; hCMEC/D3): 2000 pmol/min/mg protein
c1coc(-c2n[nH]cc2-c2ccnc3ccccc23)c1 — log2 fold change (RTK1 (Candida albicans); kinase binding, MIB/MS competition; Candida albicans lysate; 1 µM; baseline: DMSO): -0.03
NC(=O)C1(N2CCCCC2)CCN(CCCC(=O)c2ccc(F)cc2)CC1 — Km (H+/organic cation antiporter; cell uptake; hCMEC/D3): 76.6 µM
O=C(/C=C/C=C/C=C/C1CCCCC1)NC1=C[C@@](O)(/C=C/C=C/C=C/C(=O)NC2=C(O)CCC2=O)[C@@H]2O[C@@H]2C1=O — GI50 (cck81; cell growth, inhibitor, CellTiter-Glo luminescence; 78 h; baseline: day 0 cell count): > 30 µM

For quick reference, copied from above:
O=C1c2cccc3c2[C@H](CCC3)CN1[C@@H]1CN2CCC1CC2 — Vmax (H+/organic cation antiporter; cell uptake; hCMEC/D3): 1910 pmol/min/mg protein
CC[S+]([O-])c1nc(-c2ccccc2)cc(C(F)(F)F)n1 (stereo not shown) — cells with nuclear reporter (importin alpha/beta-1; cMyc nuclear import, high content imaging; HeLa Kyoto reporter; 0.158 µM, 2 h): 90% and 81.3% and 78.1% and 78.8%
CC(C)NCC(O)COc1ccc(COCCOC(C)C)cc1 (stereo not shown) — Km (H+/organic cation antiporter; cell uptake; hCMEC/D3): 93.9 µM
